Published values from different studies.
Values joined by “and” are separate records of one study, mostly repeats; a detail may differ.
Target: Eukaryotic elongation factor 2 kinase (EEF2K, Homo sapiens, UniProt O00418)

O=C=[N][Ru-4]123([n]4c5ccc(O)cc5c5c6c(c7cc(F)c[n+]1c7c54)C(=O)NC6=O)[S+]1CC[S+]2CC[S+]3CC1 (stereo not shown)
remaining activity (enzyme activity; 100 nM, human enzyme, added: 10 µM ATP; relative to: untreated): 107%

CN1CC[C@@H](COc2cnc(C#N)cc2-c2ccn3nc(NC(=O)C4CC4)cc3c2)C1
inhibition (enzyme activity, inhibitor; 1 µM): -2%

CCn1cc(C(=O)O)c(=O)c2c(N)c(F)c(NC3CCCCC3)cc21
inhibition (kinase activity; 0.1 µM, added: ATP at Km): 8%

c1ccc2c(Nc3cc(C4CCC4)[nH]n3)nc(Nc3ccc4nc[nH]c4c3)nc2c1
remaining activity (enzyme activity, inhibitor; 0.25 µM): 99%

CS(=O)(=O)Nc1cccc(-c2csc3cnc(Nc4ccc(N5CCN(CCCCCOc6cccc7c6C(=O)N(C6CCC(=O)NC6=O)C7=O)CC5)cc4)nc23)c1 (stereo not shown)
inhibition (probe labelling, inhibitor, KiNativ chemoproteomics; MOLT-4; 1 µM): -20.9%

C=CC(=O)N1Cc2nc(-c3cc(-c4cc(Cl)cnc4Cl)c(F)cc3F)n(-c3ccncn3)c2C1
inhibition (cell-free assay, inhibitor; 1 µM): 8.2%

Nc1nc(Nc2ccccc2)sc1C(=O)c1ccccc1
remaining activity (enzyme activity, inhibitor; 10 µM): 84%

COCC12C(=O)NC3C4(C(OC)CC1O)C1CC5(O)C(OC)C(O)C(OC(C)=O)(C1C5OC(=O)c1ccccc1)C3(O)C(OC)C24 (stereo not shown)
remaining activity (kinase activity, inhibitor, ProQinase kinase profiling; 25 µM; relative to: control): 116% and 111%

Cc1cccc(-c2ccc3nc(NC(=O)C4CCCO4)nn3c2)c1 (stereo not shown)
remaining activity (enzyme activity, Dundee kinase panel; 10 µM): 107%

Cc1nc2c(F)cc(-c3nc(Nc4ccc(CNC(=O)CCCCCCC(=O)NO)cc4)ncc3F)cc2n1C(C)C
inhibition (enzyme activity, inhibitor; 1 µM): 4%

Cc1cccc(-c2ccc3nc(NC(=O)C4CCOCC4)nn3c2)c1
remaining activity (enzyme activity, Dundee kinase panel; 10 µM): 107%

O=C(O)CCC(=O)c1cccc(NS(=O)(=O)c2c[nH]c3ncccc23)c1
remaining activity (kinase activity, radiometric; 10 µM): 106%

CNC(=O)C[C@H](Cc1ccc(C#N)cc1)NC(=O)c1cc(-c2ccc(CN[C@H](C)c3ccc(C)cc3)o2)ccc1Cl
activity vs control (enzyme activity, inhibitor; 1 µM): 104%

CN1CCN(Cc2ccc(-c3ccc(CO[C@H]4CCC[C@@H]4NC(=O)c4cc(-c5cnn(C)c5)cnc4N)cc3)cc2)CC1
inhibition (enzyme activity, inhibitor; 0.1 µM): -21%

COc1c(OCCCN2CCOCC2)ccc2c1N=C(NC(=O)c1cnc(N)nc1)N1CCN=C21
remaining activity (kinase activity, inhibitor; 1 µM; relative to: untreated control): 112%

O=C(Cc1ccc(OCc2ccccc2)cc1)NC1(C(=O)O)CCN(C(=O)c2ccc(-c3cccc(Cl)c3)cc2)CC1
activity vs control (enzyme activity, inhibitor; 10 µM): 121%

Some of these lines once more:
O=C(O)CCC(=O)c1cccc(NS(=O)(=O)c2c[nH]c3ncccc23)c1
remaining activity (kinase activity, radiometric; 10 µM): 106%

O=C(Cc1ccc(OCc2ccccc2)cc1)NC1(C(=O)O)CCN(C(=O)c2ccc(-c3cccc(Cl)c3)cc2)CC1
activity vs control (enzyme activity, inhibitor; 10 µM): 121%
